# Results collected from several papers.
# Parts stem from different laboratories: compare values within a part only. “And” joins repeats or separate records; there may be more than shown.
# Sequence of UniProt Q13177 (whole entry, looked up): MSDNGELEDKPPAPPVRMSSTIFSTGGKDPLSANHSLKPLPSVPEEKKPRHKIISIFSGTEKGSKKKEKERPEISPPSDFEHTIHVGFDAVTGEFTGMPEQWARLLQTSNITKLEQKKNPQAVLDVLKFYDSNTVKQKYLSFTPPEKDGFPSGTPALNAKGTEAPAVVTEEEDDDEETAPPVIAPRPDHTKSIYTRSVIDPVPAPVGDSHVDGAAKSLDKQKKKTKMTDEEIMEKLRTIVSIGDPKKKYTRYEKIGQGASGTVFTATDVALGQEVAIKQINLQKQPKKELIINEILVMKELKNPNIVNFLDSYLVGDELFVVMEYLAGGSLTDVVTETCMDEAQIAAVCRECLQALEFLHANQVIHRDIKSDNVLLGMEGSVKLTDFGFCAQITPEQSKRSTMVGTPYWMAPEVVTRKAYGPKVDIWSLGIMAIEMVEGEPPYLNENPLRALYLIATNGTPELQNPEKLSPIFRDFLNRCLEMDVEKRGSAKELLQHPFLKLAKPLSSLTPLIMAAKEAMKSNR
# Sequence of UniProt Q13464 (whole entry, looked up): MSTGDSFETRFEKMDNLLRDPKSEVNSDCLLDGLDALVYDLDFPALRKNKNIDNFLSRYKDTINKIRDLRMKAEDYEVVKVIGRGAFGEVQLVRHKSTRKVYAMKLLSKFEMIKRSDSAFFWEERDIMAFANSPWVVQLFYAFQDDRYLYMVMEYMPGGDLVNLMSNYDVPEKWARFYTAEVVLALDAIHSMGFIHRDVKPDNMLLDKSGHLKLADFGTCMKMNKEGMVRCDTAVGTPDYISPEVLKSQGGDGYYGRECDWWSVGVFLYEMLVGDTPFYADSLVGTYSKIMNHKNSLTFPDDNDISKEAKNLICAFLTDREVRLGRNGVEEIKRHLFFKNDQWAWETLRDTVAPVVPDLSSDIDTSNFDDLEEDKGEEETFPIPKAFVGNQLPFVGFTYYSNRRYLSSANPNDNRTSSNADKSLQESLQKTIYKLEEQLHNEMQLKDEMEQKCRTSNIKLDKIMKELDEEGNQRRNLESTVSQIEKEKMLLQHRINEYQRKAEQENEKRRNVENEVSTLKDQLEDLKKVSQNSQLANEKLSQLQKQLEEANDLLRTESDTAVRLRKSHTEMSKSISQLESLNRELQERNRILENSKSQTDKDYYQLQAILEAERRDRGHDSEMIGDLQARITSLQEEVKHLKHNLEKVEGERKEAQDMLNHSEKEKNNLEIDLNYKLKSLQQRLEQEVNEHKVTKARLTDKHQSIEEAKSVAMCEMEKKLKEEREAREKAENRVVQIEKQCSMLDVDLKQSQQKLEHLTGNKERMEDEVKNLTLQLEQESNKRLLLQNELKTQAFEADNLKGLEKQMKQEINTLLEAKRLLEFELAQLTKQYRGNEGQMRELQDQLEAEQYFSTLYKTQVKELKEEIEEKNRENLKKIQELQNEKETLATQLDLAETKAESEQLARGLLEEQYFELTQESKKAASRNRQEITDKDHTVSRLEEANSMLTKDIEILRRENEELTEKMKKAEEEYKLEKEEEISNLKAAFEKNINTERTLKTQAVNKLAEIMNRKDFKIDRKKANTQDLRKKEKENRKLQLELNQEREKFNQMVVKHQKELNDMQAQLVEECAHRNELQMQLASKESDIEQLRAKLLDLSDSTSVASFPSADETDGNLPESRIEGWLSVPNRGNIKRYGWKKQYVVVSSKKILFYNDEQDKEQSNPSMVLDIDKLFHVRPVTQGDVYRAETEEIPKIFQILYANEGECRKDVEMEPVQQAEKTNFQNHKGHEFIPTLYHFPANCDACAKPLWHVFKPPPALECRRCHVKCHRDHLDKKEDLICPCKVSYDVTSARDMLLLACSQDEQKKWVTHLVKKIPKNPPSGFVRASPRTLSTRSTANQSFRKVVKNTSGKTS
# Sequence of UniProt P21860 (whole entry, looked up): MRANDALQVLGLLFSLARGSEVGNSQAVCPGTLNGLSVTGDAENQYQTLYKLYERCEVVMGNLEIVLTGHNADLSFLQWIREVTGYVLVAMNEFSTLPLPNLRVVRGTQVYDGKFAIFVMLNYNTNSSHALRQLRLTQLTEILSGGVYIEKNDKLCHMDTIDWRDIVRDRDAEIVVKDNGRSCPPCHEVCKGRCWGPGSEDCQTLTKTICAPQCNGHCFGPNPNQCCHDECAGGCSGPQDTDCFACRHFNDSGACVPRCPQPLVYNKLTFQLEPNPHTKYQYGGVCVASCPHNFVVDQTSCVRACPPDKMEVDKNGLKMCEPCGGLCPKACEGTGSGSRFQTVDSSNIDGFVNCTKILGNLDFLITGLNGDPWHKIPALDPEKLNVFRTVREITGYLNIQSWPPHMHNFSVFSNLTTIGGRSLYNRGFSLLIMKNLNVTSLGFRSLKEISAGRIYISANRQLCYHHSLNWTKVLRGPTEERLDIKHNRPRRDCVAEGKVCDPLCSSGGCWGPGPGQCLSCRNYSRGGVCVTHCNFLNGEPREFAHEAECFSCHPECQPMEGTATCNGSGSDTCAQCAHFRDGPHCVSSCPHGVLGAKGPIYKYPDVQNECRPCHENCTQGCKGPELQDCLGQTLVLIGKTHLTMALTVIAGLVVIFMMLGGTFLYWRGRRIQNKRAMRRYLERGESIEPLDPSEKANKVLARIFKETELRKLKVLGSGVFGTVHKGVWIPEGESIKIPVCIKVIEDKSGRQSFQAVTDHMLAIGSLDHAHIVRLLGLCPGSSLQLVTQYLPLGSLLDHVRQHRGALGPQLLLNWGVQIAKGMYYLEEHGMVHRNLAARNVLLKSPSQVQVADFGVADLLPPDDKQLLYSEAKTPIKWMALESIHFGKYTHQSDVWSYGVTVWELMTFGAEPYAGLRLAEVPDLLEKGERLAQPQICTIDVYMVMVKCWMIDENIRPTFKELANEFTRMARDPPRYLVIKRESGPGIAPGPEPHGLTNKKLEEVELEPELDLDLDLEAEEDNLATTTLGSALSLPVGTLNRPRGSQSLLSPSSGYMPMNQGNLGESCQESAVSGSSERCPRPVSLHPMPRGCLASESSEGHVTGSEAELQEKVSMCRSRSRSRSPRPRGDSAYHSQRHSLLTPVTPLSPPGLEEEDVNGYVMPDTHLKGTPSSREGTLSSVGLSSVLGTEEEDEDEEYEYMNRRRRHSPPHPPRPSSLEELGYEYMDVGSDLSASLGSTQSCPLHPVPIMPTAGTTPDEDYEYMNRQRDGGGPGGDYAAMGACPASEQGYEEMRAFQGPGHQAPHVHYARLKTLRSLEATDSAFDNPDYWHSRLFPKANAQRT
# Sequence of UniProt O75676 (whole entry, looked up): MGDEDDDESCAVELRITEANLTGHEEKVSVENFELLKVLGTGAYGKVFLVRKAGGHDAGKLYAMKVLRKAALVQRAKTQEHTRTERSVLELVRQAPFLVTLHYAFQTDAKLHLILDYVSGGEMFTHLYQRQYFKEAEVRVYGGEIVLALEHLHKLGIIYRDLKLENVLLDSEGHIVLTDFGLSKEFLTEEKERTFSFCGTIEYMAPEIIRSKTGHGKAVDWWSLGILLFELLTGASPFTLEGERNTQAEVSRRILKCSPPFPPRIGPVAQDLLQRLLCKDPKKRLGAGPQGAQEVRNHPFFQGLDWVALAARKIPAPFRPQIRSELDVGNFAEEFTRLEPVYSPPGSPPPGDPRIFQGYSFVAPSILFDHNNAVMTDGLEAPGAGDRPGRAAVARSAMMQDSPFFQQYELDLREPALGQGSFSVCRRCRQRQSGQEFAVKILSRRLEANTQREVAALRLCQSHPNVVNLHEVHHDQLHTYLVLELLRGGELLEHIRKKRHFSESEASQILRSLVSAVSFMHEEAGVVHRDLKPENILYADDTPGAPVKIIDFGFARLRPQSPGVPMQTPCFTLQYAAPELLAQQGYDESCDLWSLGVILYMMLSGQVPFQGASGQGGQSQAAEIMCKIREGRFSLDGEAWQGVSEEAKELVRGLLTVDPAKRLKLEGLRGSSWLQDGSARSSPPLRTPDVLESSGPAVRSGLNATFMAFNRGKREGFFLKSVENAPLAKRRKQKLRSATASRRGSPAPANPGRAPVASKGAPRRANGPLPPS
# Sequence of UniProt P48729 (whole entry, looked up): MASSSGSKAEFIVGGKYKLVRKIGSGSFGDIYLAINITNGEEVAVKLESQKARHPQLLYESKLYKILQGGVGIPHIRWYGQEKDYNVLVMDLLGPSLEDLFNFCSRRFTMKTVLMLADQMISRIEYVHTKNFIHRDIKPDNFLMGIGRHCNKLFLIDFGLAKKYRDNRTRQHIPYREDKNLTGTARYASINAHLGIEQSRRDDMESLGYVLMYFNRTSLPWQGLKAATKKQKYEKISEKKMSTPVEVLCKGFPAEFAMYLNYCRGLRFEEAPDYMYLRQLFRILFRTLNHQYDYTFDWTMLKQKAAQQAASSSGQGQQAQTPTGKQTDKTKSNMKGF

# Set 1
# Compound: CNC(=O)Nc1ccc2c(c1)[C@@]1(CC2)OC(=O)N(CC(=O)N(Cc2ccc(F)cc2)[C@@H](C)C(F)(F)F)C1=O
# Effect on: cell-free assay
# Method: competition with immobilised ligand
# Concentration: 1 µM
target,remaining binding [%]
"ROCK1 (Homo sapiens, UniProt Q13464)",81
"MAP3K14 (Homo sapiens, UniProt Q99558)",68
"PIK3CA (Homo sapiens, UniProt P42336, H1047Y)",100
"CSNK1A1 (Homo sapiens, UniProt P48729)",83
"Tyrosine-protein kinase ABL1, non-phosphorylated (ABL1, Homo sapiens, UniProt P00519, H396P)",53
"Ribosomal protein S6 kinase alpha-3, N-terminal kinase domain (RPS6KA3, Homo sapiens, UniProt P51812)",75
"Ribosomal protein S6 kinase alpha-4, C-terminal kinase domain (RPS6KA4, Homo sapiens, UniProt O75676)",88
"SNRK (Homo sapiens, UniProt Q9NRH2)",100
"TNK2 (Homo sapiens, UniProt Q07912)",87
"ERBB3 (Homo sapiens, UniProt P21860)",81
"MAP2K2 (Homo sapiens, UniProt P36507)",99
"PAK2 (Homo sapiens, UniProt Q13177)",94
"BRSK1 (Homo sapiens, UniProt Q8TDC3)",100

# Set 2
# SMILES: CC(=O)N[C@@H](Cc1c[nH]c2ccccc12)C(=O)N[C@@H](CCC(=O)C=[N+]=[N-])C(=O)OC(C)C
# Host: C57BL/6 CES1-/- mice, EL4 tumour
# Route: subcutaneous
# Dose: 0.3 mg/kg/day DON equivalent
# Time: 5 days
# Notes: normalised to tissue mass
# Reading: higher = more metabolite
method,refers to,cells,sample,metabolite peak intensity
UPLC-MS/MS,isovalerylcarnitine,EL4,tumour,2.25e+07 a.u. and 8.42e+06 a.u. and 1.66e+07 a.u. and 1.22e+07 a.u. and 1.96e+07 a.u. and 2.61e+07 a.u.
UPLC-MS/MS metabolomics,N-acetylthreonine,,EL4 tumour,1.86e+06 a.u. and 1.91e+06 a.u. and 1.62e+06 a.u. and 1.94e+06 a.u. and 1.74e+06 a.u.
UPLC-MS/MS,histidine,EL4,tumour,1.66e+07 a.u. and 1.77e+07 a.u. and 1.87e+07 a.u. and 1.31e+07 a.u. and 1.41e+07 a.u. and 1.18e+07 a.u.
UPLC-MS/MS metabolomics,"N2,N2-dimethylguanosine",,EL4 tumour,645000 a.u. and 415000 a.u. and 613000 a.u. and 801000 a.u. and 530000 a.u. and 713000 a.u.
UPLC-MS/MS,gulonate,EL4,tumour,5.96e+07 a.u. and 8.44e+07 a.u. and 7.68e+07 a.u. and 6.41e+07 a.u. and 4.94e+07 a.u. and 7.9e+07 a.u.

# Set 3
# Target: Beta-1 adrenergic receptor (ADRB1, Homo sapiens, UniProt P08588)
# Sequence of UniProt P08588 (whole entry, looked up): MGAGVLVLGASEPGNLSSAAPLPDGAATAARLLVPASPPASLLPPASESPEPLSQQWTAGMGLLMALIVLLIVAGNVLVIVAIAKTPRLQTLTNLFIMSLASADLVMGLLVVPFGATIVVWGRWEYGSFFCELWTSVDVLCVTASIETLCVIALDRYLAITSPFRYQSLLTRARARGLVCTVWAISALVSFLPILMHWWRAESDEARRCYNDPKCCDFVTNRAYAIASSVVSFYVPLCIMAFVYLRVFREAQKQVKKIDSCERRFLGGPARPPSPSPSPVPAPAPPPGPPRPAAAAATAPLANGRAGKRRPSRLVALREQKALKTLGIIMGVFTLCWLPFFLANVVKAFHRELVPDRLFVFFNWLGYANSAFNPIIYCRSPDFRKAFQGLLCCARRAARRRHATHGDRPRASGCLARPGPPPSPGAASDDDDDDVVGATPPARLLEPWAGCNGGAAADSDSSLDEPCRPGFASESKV
# Action: antagonist
SMILES,IC50 [µM]
Cc1cc(=O)oc2cc(NC(=O)CCCCCCC(=O)NO)ccc12,≥ 100
O=C1COCC2(CN(c3cnccn3)C2)CN1c1cccnc1,≥ 100
COc1ccccc1N1CCN([C@H]2[C@@H]3OC[C@@H](O3)[C@@H](NCc3ccc(-c4ccccc4)cc3)[C@@H]2O)CC1,≥ 100
CC(=O)Oc1ccc2c(C)cc(=O)oc2c1,≥ 100
Cc1nc(Cn2nc(-c3ccccc3)ccc2=O)nc2ccccc12,≥ 100
Cc1nn(CC(=O)NCc2ccc(N(C)C)cc2)c(=O)c2nc(C(C)C)sc12,≥ 100
COc1cc(NC(=O)CCN2CCC(OC(=O)Nc3ccccc3-c3ccccc3)CC2)c(Cl)cc1CNC[C@H](O)c1ccc(O)c2[nH]c(=O)ccc12,≥ 100
Cc1cccnc1NCCNc1nc(C(C)C)nc2c1cnn2C,≥ 100
COCCNC[C@@H]1C=C(C)[C@H](Cc2nnc(-c3ccc(N(C)C)cc3)o2)C[C@H]1C(C)C,≥ 100

# Set 4
# Target: Inhibitor of nuclear factor kappa-B kinase subunit alpha (CHUK, Homo sapiens, UniProt O15111)
# Effect on: enzyme activity
# Action: inhibitor
# Concentration: 0.5 µM
# Baseline: control
# Target sequence (O15111 1-745): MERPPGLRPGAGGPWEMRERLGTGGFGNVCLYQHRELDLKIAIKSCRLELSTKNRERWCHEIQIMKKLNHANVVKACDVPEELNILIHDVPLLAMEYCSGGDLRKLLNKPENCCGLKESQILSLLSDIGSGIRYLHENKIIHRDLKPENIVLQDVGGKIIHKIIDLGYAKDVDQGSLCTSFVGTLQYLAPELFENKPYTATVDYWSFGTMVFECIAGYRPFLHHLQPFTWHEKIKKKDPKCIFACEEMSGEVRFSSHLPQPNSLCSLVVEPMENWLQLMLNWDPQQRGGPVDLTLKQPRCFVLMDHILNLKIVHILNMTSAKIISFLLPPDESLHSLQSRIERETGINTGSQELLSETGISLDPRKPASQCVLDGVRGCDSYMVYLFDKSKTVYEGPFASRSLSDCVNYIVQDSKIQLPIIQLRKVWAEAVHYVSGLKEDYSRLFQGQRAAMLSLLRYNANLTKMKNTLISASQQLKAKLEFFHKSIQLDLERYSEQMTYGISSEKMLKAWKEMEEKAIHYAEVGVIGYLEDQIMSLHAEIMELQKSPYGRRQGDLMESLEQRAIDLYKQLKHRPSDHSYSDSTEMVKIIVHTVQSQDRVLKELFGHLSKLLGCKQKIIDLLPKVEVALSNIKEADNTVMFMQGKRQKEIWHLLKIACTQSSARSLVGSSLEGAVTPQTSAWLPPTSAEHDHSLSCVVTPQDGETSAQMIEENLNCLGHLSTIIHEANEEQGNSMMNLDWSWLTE
SMILES,remaining activity [%]
Nc1ncnc2c1cnn2-c1ccccc1,92.6
N#CC(=C(N)Sc1ccc(N)cc1)c1ccccc1C(F)(F)F,102
O=S(=O)(NCCNC/C=C/c1ccc(Br)cc1)c1cccc2cnccc12,104
CCCC(=O)Oc1ccc2[nH]c(C(=O)c3cc4ccccc4[nH]3)cc2c1,94.5
Cc1cncc2cccc(S(=O)(=O)N3CCCN(C(=O)CN)C[C@@H]3C)c12,105
Nc1nccc(-c2c(-c3ccc(F)cc3)ncn2C2CCNCC2)n1,102
